Assay results pooled from the literature.
Each line is one published result; not all experiments were run side by side. Numbers after ± are the reported error.

N=C(N)NCCC[C@@H]1NC(=O)[C@H](Cc2c[nH]c3ccccc23)NC(=O)[C@@H](CC2CCCCC2)NC(=O)[C@@H]2CCCN2C(=O)[C@@H](NC(=O)CCc2ccccc2)CCCNC1=O: “distribution rate constant (K12)” 2.75 h⁻¹ (C57BL/6J mouse, spinal cord; intraperitoneal, 1 mg/kg, single dose, two-compartment model).
O=c1nc(NO)ccn1[C@@H]1O[C@H](CO)[C@@H](O)[C@H]1O gave a protein level of 0.3 fold (refers to: CYP2C8; rat, arthritis model, liver; oral, 80 mg/kg twice daily, 5 days; reference: untreated arthritic rats).
For O=C([O-])CN1CCN(CC(=O)[O-])CCN(CC(=O)NCCc2ccc3c(c2)C2C=CCC2C(c2cc4c(cc2Br)OCO4)N3)CCN(CC(=O)[O-])CC1.[111In+3] (stereo not shown), the tissue uptake was 0.08 ± 0.02 %ID/g (mouse, Hec50 endometrial tumour, muscle; 4 h post injection).
The logP of CCCCCCNCC(=O)O is reported as -0.89 (shake flask; water; 24 h).
For C[C@H](CN(C)Cc1ccccc1)NC(=O)c1ccc(-c2noc(C(F)(F)[18F])n2)cc1, the brain-to-heart ratio was 4.71 ± 0.35 (PET; Sprague-Dawley rat, female, brain and heart; intravenous, 10 min; reference: brain SUV over heart SUV).
For C[C@]12C[C@H](c3ccc(S(C)(=O)=O)cc3)C3=C4CCC(=O)C=C4CC[C@H]3[C@@H]1CC[C@@]2(O)C(F)(F)C(F)(F)F, “maximal oral bioavailability” read 94% (human liver microsomes; 100 % absorption assumed).
With C[C@H]1NSc2nc(=O)c3[nH]ccc3n2Cc2ccc(Cl)cc21 the exposure ratio was 39 (Sprague-Dawley rat, female, plasma; oral, 125 mg/kg/day; reference: rat over human 15 mg).
COCCN(CC(N)=O)C(=O)CN(CCOC)C(=O)CN(CCOC)C(=O)CN(CCC(=O)O)C(=O)CN(CCOC)C(=O)CN(CCOC)C(=O)CN(CCOC)C(=O)CN(CCCCN)C(=O)CN(CCOC)C(=O)CN(CCOC)C(=O)CN(CCOC)C(=O)CN(CCOC)C(=O)CN(CCOC)C(=O)CN(CCOC)C(=O)C(Cc1ccccc1)NC(C)=O (stereo not shown) — result for “pKa of NH2 group”: 9.8 (potentiometric titration with KOH; 100 x 1 mM KCl).
CCCC[C@H](NC(=O)CNC(=O)CNC(=O)CN1CCN(CC(=O)O)CCN(CC(=O)O)CC1)C(=O)N[C@H]1CC(=O)NCCCC[C@@H](C(N)=O)NC(=O)[C@H](Cc2c[nH]c3ccccc23)NC(=O)[C@H](CCCNC(=N)N)NC(=O)[C@@H](Cc2ccccc2)NC(=O)[C@H](Cc2c[nH]cn2)NC1=O [copper-64 labelled] gave an uptake ratio of 17.9 (female C57 mouse, B16/F1 melanoma; intravenous, 0.037 MBq, 4 h; reference: tumour over lung).
For CC(C)(O)c1ncc([S@](N)(=O)=NC(=O)Nc2c3c(cc4c2CCC4)CCC3)s1, the Cmax was 4520 ng/mL (human, plasma; oral, 300 mg, single dose, fasted, healthy volunteers).
For OC1(C(F)(F)F)CCN(c2nc(Nc3ccnc(C(F)(F)F)c3)nc(-c3cccc(C(F)(F)F)n3)n2)C1 (stereo not shown), “AUC(0-24h) accumulation ratio” read 2.2 (Sprague-Dawley rat, both sexes, plasma; oral, 5 mg/kg daily for 14 days; reference: day 14 over day 1).
For CCN1/C(=C/C=C2\CCCC(/C=C/C3=[N+](CC)c4ccccc4C3(C)C)=C2NCCCCCCCCN2CCC(Nc3nc4ccccc4n3Cc3ccc(F)cc3)CC2)C(C)(C)c2ccccc21, “aggregate particle size” read ~300 nm (TEM; saline; 10 µM, main population).
For CCCC[C@H](NC(=O)CN1CCC(NC(=O)CN2CCN(CC(=O)O)CCN(CC(=O)O)CCN(CC(=O)O)CC2)CC1)C(=O)N[C@H]1CC(=O)NCCCC[C@@H](C(N)=O)NC(=O)[C@H](Cc2c[nH]c3ccccc23)NC(=O)[C@H](CCCNC(=N)N)NC(=O)[C@@H](Cc2ccccc2)NC(=O)[C@H](Cc2c[nH]cn2)NC1=O [gallium-68 labelled], “tumour to muscle ratio” read 73.6 ± 30.5 (biodistribution; C57BL/6J mouse male tumour-bearing; 1 h post injection, unblocked; reference: tumour over muscle).
With CC(C)[C@H](NC(=O)[C@@H]1CCCN1C(=O)[C@H](CCCNC(=N)N)NC(=O)[C@H](CS)NC(=O)[C@H](Cc1c[nH]c2ccccc12)NC(=O)[C@H](CCCNC(=N)N)NC(=O)[C@@H](Cc1ccccc1)NC(=O)[C@H](Cc1c[nH]cn1)NC(=O)[C@H](CCC(=O)O)NC(=O)[C@H](CS)NC(=O)[C@H](CS)NC(=O)[C@@H]1CC(=O)N[C@@H](CCCNC(=N)N)C(=O)NCC(=O)N[C@@H](CC(=O)O)C(=O)N[C@H](Cc2ccc(O)cc2)C(=O)N1)C(N)=O [technetium-99m labelled] the excretion was 29.3 ± 12.4% (C57 mice B16/F1 melanoma female, urine; iv, 0.037 MBq, 0.5 h).
For C#CCOc1ccc(/C=C2\SC(=O)N(CC(=O)NCc3ccccc3)C2=O)cc1, “Kirkwood-Buff integral G2,3” read -338 cm³/mol (inverse Kirkwood-Buff integrals; binary solvent mixture; 298.15 K, mole fraction x1 0.95).
For COc1ccc2cc(-c3ccc(-c4ccc(C)cn4)nc3)oc2c1, “radiative decay rate constant” read 0.36 ns⁻¹ (TCSPC; MeOH).
For Br.Br.O=c1c(O)cccn1CCN1CCN(CCn2cccc(O)c2=O)CC1, the pKa difference was 1.4 (hydroxypyridinone groups; reference: pKa3 over pKa2).
With CC12CC3CC(C)(C1)CC(NC(=O)Nc1ccc(C(=O)N4CCC[C@H](C(N)=O)C4)cc1F)(C3)C2 the Vz was 79.1 L (Sprague Dawley rats, both sexes, plasma; oral, 50 mg/kg).
With CCCC[C@H](NC(=O)CNC(=O)CNC(=O)CN1CCN(CC(=O)O)CCN(CC(=O)O)CCN(CC(=O)O)CC1)C(=O)N[C@H]1CC(=O)NCCCC[C@@H](C(N)=O)NC(=O)[C@H](Cc2c[nH]c3ccccc23)NC(=O)[C@H](CCCNC(=N)N)NC(=O)[C@@H](Cc2ccccc2)NC(=O)[C@H](Cc2c[nH]cn2)NC1=O [indium-111 labelled] the urinary excretion was 93.2 ± 1.6% (C57 mouse, female, B16/F1 melanoma, urine; intravenous, 0.037 MBq, 24 h).
The AUCtau of CC[C@H](C)[C@H](NC(=O)[C@H](CC(C)C)NC(=O)[C@H](Cc1c[nH]c2ccccc12)NC(=O)[C@H](C)NC(=O)[C@@H](NC(=O)[C@H](Cc1ccccc1)NC(=O)[C@H](CC(=O)O)NC(=O)[C@H](CCCNC(=N)N)NC(=O)[C@H](C)NC(=O)[C@H](C)NC(=O)[C@H](CC(C)C)NC(=O)[C@H](C)NC(=O)[C@H](CC(=O)O)NC(=O)[C@H](CC(C)C)NC(=O)[C@@H](NC(=O)[C@@H](NC(=O)[C@H](C)NC(=O)[C@H](CC(C)C)NC(=O)[C@H](CCC(=O)O)NC(=O)[C@H](CO)NC(=O)[C@H](CO)NC(=O)[C@H](Cc1ccccc1)NC(=O)[C@@H](NC(=O)CNC(=O)[C@H](CCC(=O)O)NC(=O)CNC(=O)[C@@H](N)Cc1c[nH]cn1)[C@@H](C)O)[C@@H](C)O)[C@@H](C)CC)[C@@H](C)CC)C(=O)N[C@@H](C)C(=O)N[C@H](C(=O)N[C@@H](CCCCN)C(=O)N[C@H](C(=O)N[C@H](C(=O)N[C@@H](CC(=O)O)C(=O)N[C@@H](CCCCN)C(=O)N[C@@H](CCCCN)C(=O)O)[C@@H](C)O)[C@@H](C)CC)[C@@H](C)O is reported as 7.65 nM·h (immunoaffinity LC-MS/MS; healthy human subjects, plasma; subcutaneous, 5 mg once weekly, day 36 after 6 doses, steady state, geometric mean).
The relative error of CNC(=O)N[C@]1(C)CCC[C@@]2(C)C3CC[C@@]4(C)C[C@]3(CCC21)CC4=O (single isomer, unassigned) is reported as -2.4% (rat plasma; 1.5 ng/mL, 101 d, -80 °C, long-term storage stability; reference: nominal concentration).
For COC(=O)c1ccc(-c2cn(Cc3cc(Cl)ccc3O[11CH3])nn2)cc1, “distribution volume VT” read 0.476 mL/cm³ (PET, 2TCM; rhesus macaque, hippocampus; dose not given).
For COCC1CN(C2CCN(c3cc(OC)c(Nc4ncc(Br)c(Nc5ccc6c(c5P(C)(C)=O)OCCO6)n4)cc3C)CC2)C1, “patients with loss of appetite” read 33.3% (human; oral, dose not given, sample A patients, any grade).
For Oc1ccc2ccccc2c1/N=N/c1ccccc1, the measured concentration was 15.9 µg/L (rat whole blood QC samples; 16.0 µg/L, 4 h, room temperature, short-term stability).
COc1ccc(N2CCOCC2)c2sc(NC(=O)c3ccnc(CN4CCCC4)c3)nc12 gave a pKa (acidic) of 7.2 (photometric titration).
For CC[C@H](C)[C@H](NC(=O)[C@H](C)NC(=O)CNC(=O)[C@H](Cc1ccccc1)NC(=O)[C@H](CC(N)=O)NC(=O)[C@H](CC(N)=O)NC(=O)[C@H](CO)NC(=O)[C@H](CO)NC(=O)[C@H](Cc1c[nH]cn1)NC(=O)[C@@H](NC(=O)[C@H](CC(C)C)NC(=O)[C@H](Cc1ccccc1)NC(=O)[C@H](CC(N)=O)NC(=O)[C@H](C)NC(=O)[C@H](CC(C)C)NC(=O)[C@H](CCCNC(=N)N)NC(=O)[C@H](CCC(N)=O)NC(=O)[C@@H](NC(=O)[C@H](C)NC(=O)[C@@H]1CSSC[C@H](NC(=O)[C@@H](N)CCCCN)C(=O)N[C@@H](CC(N)=O)C(=O)N[C@@H]([C@@H](C)O)C(=O)N[C@@H](C)C(=O)N[C@@H]([C@@H](C)O)C(=O)N1)[C@@H](C)O)C(C)C)C(=O)N[C@@H](CC(C)C)C(=O)N1CCC[C@H]1C(=O)N1CCC[C@H]1C(=O)N[C@H](C(=O)N[C@@H](CC(N)=O)C(=O)N[C@H](C(=O)NCC(=O)N[C@@H](CO)C(=O)N[C@@H](CC(N)=O)C(=O)N[C@H](C(=O)N[C@@H](Cc1ccc(O)cc1)C(N)=O)[C@@H](C)O)C(C)C)[C@@H](C)O, “collision cross section” read 885.2 ± 4.6 Å² (ion mobility mass spectrometry; nitrogen drift gas; dimer ion charge +4).
The permeability of COc1cccc(CNC[C@@](O)(COCc2ccccc2)[C@@H]2CC[C@@H](C)C[C@H]2OCc2ccccc2)c1 is reported as 24.5 ± 6.5 ×10⁻⁶ cm/s (PAMPA-GI; phosphatidylcholine-cholesterol membrane; 500 µM, 4 h, pH 6.5, 37 °C, 5% DMSO).
For CC1=CC(C)(C)N=C2C=CC(=O)C=C12, the tissue residue was 5.6 ± 1.5 ng/g (LC-MS/MS; laying hens, liver; oral in feed, 50 mg/kg feed ethoxyquin, 56 days, after glucuronidase treatment).
